Measurements of several laboratories.
Protocols differ between the studies behind these lines. Values joined by “and” are separate records of one study, mostly repeats; a detail may differ.
Target: Prostaglandin G/H synthase 2 (PTGS2, Homo sapiens, UniProt P35354)

Cc1cc(Nc2nc(C[C@@]3(C(=O)O)CCN(Cc4cccc(Cl)c4F)[C@H](C)C3)cc(C)c2F)[nH]n1 — inhibition (enzyme activity, inhibitor; 10 µM): -15.8%
CCc1nnc(-c2c(OC)cc(-c3cnc4cc(-c5cnn(C)c5)ccn34)cc2OC)o1 — remaining binding (radioligand binding; 10 µM, SafetyScreen44 mean; lower = stronger displacement): 95.4%
C[C@@H]1COCCN1c1nc(NCc2cccnc2C(F)(F)F)c2cccnc2n1 — IC50 (inhibitor): 44 µM
Cc1ccc2c(n1)c(-c1cccc(S(C)(=O)=O)c1)c(C)n2C/C(F)=C/CN — inhibition (cell-free assay; 10 µM): -18%
CS(C)(=O)=Nc1ccc(-c2ccc(-c3nc4cc(O[C@@H]5CO[C@H]6[C@@H]5OC[C@H]6O)[nH]c4cc3F)cc2)cc1 — inhibition (enzyme activity, inhibitor; 10 µM): 27%
O=C(COC(=O)c1ccccc1Nc1cccc(C(F)(F)F)c1)Nc1cccc(C(F)(F)F)c1 — selectivity ratio (baseline: COX-1 IC50 over COX-2 IC50): 5.68
N[C@H](C(=O)N1CCCC1)C1CCN(c2nccc3c(-c4ncc(Cl)cc4Cl)cccc23)CC1 — inhibition (enzyme activity, inhibitor; 10 µM): 23%
CCN(CC)CCOc1ccc(-c2nnn(Cc3ccc(OC)cc3)c2N)cc1 — inhibition (enzyme activity; 10 µM): -5.68%
C[C@H](NCc1ccc(-c2ccc(C(F)(F)F)cc2)cc1)C(N)=O — inhibition (enzyme activity, SafetyScreen panel; 1 µM, with: 0.30 µM arachidonic acid): -11%
COc1ccc(F)cc1S(=O)(=O)Nc1cnc2c(c1)C(=O)NCCO2 — inhibition (enzyme activity, inhibitor; 10 µM): 6%
Cc1cc(-c2ccc3ccccc3c2)nnc1NCCN1CCN(C)CC1 — inhibition (enzyme activity; concentration not given): negative
O=C(O)c1ccc(-c2nc(-c3ccccc3Cl)c3sccn23)cc1 — specific binding (radioligand binding, safety screen panel; 10 µM; baseline: control): 112% and 105%
CCOC(=O)[C@](CC)(CCCSCCOCCOCCNC(=O)c1ccc(-c2c3ccc(=N)c(S(=O)(=O)O)c-3oc3c(S(=O)(=O)O)c(N)ccc23)c(C(=O)O)c1)NC(=O)c1ccc(C2CC2)c(Cc2ccc(F)cc2)n1 — inhibition (enzyme activity, inhibitor; 10 µM): -5%
C/C(=N\OCCCN1CCCCC1)c1ccc(C(F)(F)F)cc1 — inhibition (antagonist, FI; 10 µM): 13.9%
